Measurements pooled from the literature.
Each line is one published result; not all experiments were run side by side.
Technique: steady-state kinetics
B1: LdmS (Staphylococcus aureus, UniProt Q2FWC5); chain MTNNGNEPNLTLSDLYDKDVVYTSRPSYISNPWLKPDEHQSNFLTGRELLIANQLPVIVHEASATDKLHQLFQVIGKEVPNSIYTFNNQQSYENLIKQLAHKENKKIYFQYIHDETILNQQYYALDKTLFVALNNKARIPEWTNGKFLPKRKVVKIEQFENEIKNWEFPLVIKPGDDLPTAGGYGVMICYHDADLQKAITRIKEATAETNSLIIEQKIEEKANYCVQFAYSESLGIQYLGAATQLTDKYGFYNGNENTTNVPEHVIEAGRQIMENGVNQGFFGVAGFDLLVDEDDNVYAIDLNFRQNGSTSMLLLANELNSGYQKFYSYHSKGDNTHFFNTILKYVKEGSLYPLSYYDGDWYGEDKVKSRFGCIWHGDSKETVLENERAFLAELEHY
B2: MCAT R178G (Homo sapiens, UniProt Q8IVS2); chain GQGSQVVGMGRGLLNYPRVRELYAAARRVLGYDLLELSLHGPQETLDRTVHCQPAIFVASLAAVEKLHHLQPSVIENCVAAAGFSVGEFAALVFAGAMEFAEGLYAVKIGAEAMQEASEAVPSGMLSVLGQPQSKFNFACLEAREHCKSLGIENPVCEVSNYLFPDCRVISGHQEALRFLQKNSSKFHFRRTRMLPVSGAFHTRLMEPAVEPLTQALKAVDIKKPLVSVYSNVHAHRYRHPGHIHKLLAQQLVSPVKWEQTMHAIYERKKGRGFPQTFEVGPGRQLGAILKSCNMQAWKSYSAVDVL
B3: LYS12 D271N (Saccharomyces cerevisiae, UniProt P40495); chain SLTIGLIPGDGIGKEVIPAGKQVLENLNSKHGLSFNFIDLYAGFQTFQETGKALPDETVKVLKEQCQGALFGAVQSPTTKVEGYSSPIVALRREMGLFANVRPVKSVEGEKGKPIDMVIVRENTEDLYIKIEKTYIDKATGTRVADATKRISEIATRRIATIALDIALKRLQTRGQATLTVTHKSNVLSQSDGLFREICKEVYESNKDKYGQIKYNEQIVDSMVYRLFREPQCFDVIVAPNLYGDILSNGAAALVGSLGVVPSANVGPEIVIGEPCHGSAPDIAGKGIANPIATIRSTALMLEFLGHNEAAQDIYKAVDANLREGSIKTPDLGGKASTQQVVDDVLSRL
B4: enzyme (Mus musculus, UniProt P08680); chain DRKSKIVQRAAPEVQEDVKTFKTDLLSTMDSTTRSHSFPSFQEPEQTEGAVPHLIQNNMTGSQAFGYDQFFRDKIMEKKQDHTYRVFKTVNRWANAYPFAQHFSEASMASKDVSVWCSNDYLGISRHPRVLQAIEETLKNHGAGAGGTRNISGTSKFHVELEQELAELHQKDSALLFSSCFVANDSTLFTLAKLLPGCEIYSDAGNHASMIQGIRNSGAAKFVFRHNDPGHLKKLLEKSDPKTPKIVAFETVHSMDGAICPLEELCDVAHQYGALTFVDEVHAVGLYGARGAGIGERDGIMHKLDIISGTLGKAFGCVGGYIASTRDLVDMVRSYAAGFIFTTSLPPMVLSGALESVRLLKGEEGQALRRAHQRNVKHMRQLLMDRGFPVIPCPSHIIPIRVGNAALNSKICDLLLSKHSIYVQAINYPTVPRGEELLRLAPSPHHSPQMMENFVEKLLLAWTEVGLPLQDVSVAACNFCHRPVHFELMSEWERSYFGNMGPQYVTTYA
B5: phyA (Aspergillus niger, UniProt P34752); chain ASRNQSSCDTVDQGYQCFSETSHLWGQYAPFFSLANESVISPEVPAGCRVTFAQVLSRHGARYPTDSKGKKYSALIEEIQQNATTFDGKYAFLKTYNYSLGADDLTPFGEQELVNSGIKFYQRYESLTRNIVPFIRSSGSSRVIASGKKFIEGFQSTKLKDPRAQPGQSSPKIDVVISEASSSNNTLDPGTCTVFEDSELADTVEANFTATFVPSIRQRLENDLSGVTLTDTEVTYLMDMCSFDTISTSTVDTKLSPFCDLFTHDEWINYDYLQSLKKYYGHGAGNPLGPTQGVGYANELIARLTHSPVHDDTSSNHTLDSSPATFPLNSTLYADFSHDNGIISILFALGLYNGTKPLSTTTVENITQTDGFSSAWTVPFASRLYVEMMQCQAEQEPLVRVLVNDRVVPLHGCPVDALGRCTRDSFVRGLSFARSGGDWAECFA
B6: SLCO1B1 (Homo sapiens, UniProt Q9Y6L6); chain MDQNQHLNKTAEAQPSENKKTRYCNGLKMFLAALSLSFIAKTLGAIIMKSSIIHIERRFEISSSLVGFIDGSFEIGNLLVIVFVSYFGSKLHRPKLIGIGCFIMGIGGVLTALPHFFMGYYRYSKETNINSSENSTSTLSTCLINQILSLNRASPEIVGKGCLKESGSYMWIYVFMGNMLRGIGETPIVPLGLSYIDDFAKEGHSSLYLGILNAIAMIGPIIGFTLGSLFSKMYVDIGYVDLSTIRITPTDSRWVGAWWLNFLVSGLFSIISSIPFFFLPQTPNKPQKERKASLSLHVLETNDEKDQTANLTNQGKNITKNVTGFFQSFKSILTNPLYVMFVLLTLLQVSSYIGAFTYVFKYVEQQYGQPSSKANILLGVITIPIFASGMFLGGYIIKKFKLNTVGIAKFSCFTAVMSLSFYLLYFFILCENKSVAGLTMTYDGNNPVTSHRDVPLSYCNSDCNCDESQWEPVCGNNGITYISPCLAGCKSSSGNKKPIVFYNCSCLEVTGLQNRNYSAHLGECPRDDACTRKFYFFVAIQVLNLFFSALGGTSHVMLIVKIVQPELKSLALGFHSMVIRALGGILAPIYFGALIDTTCIKWSTNNCGTRGSCRTYNSTSFSRVYLGLSSMLRVSSLVLYIILIYAMKKKYQEKDINASENGSVMDEANLESLNKNKHFVPSAGADSETHC
B7: tsaM1 F253S/G291W/H204M/H255G/M230N/R216A/S234V/S257H/T232I/Y220I (Comamonas testosteroni, UniProt P94679); chain MFIRNCWYVAAWDTEIPAEGLFHRTLLNEPVLLYRDTQGRVVALENRCCHRSAPLHIGRQEGDCVRCLYHGLKFNPSGACVEIPGQEQIPPKTCIKSYPVVERNRLVWIWMGDPARANPDDIVDYFWHDSPEWRMKPGYIHYQANYKLIVDNLLDFTHLAWVHPTTLGTDSAASLKPVIERDTTGTGKLTITRWYLNDDMSNLMKGVAKFEGKADAWQIIQWSPPALLRNDIGVAPTGTGAPEGRRVPEAVQSRGTHIQTPETETTSHYWFCQARNFDLDDEALTEKIYQWVVVAFEEDRTMIEAHEKILSQVPDRPMVPIAADAGLNQGRWLLDRLLKAENGGTAP
B8: GSH1 E201K (Arabidopsis thaliana, UniProt P46309); chain AASPPTEEAVVATEPLTREDLIAYLASGCKTKDKYRIGTEHEKFGFEVNTLRPMKYDQIAELLNGIAERFEWEKVMEGDKIIGLKQGKQSISLEPGGQFELSGAPLETLHQTCAEVNSHLYQVKAVAKEMGIGFLGIGFQPKWRREDIPIMPKGRYDIMRNYMPKVGTLGLDMMLRTCTVQVNLDFSSEADMIRKFRAGLALQPIATALFANSPFTEGKPNGFLSMRSHIWTDTDKDRTGMLPFVFDDSFGFEQYVDYALDVPMYFAYRKNKYIDCTGMTFRQFLAGKLPCLPGELPSYNDWENHLTTIFPEVRLKRYLEMRGADGGPWRRLCALPAFWVGLLYDDDSLQAILDLTADWTPAEREMLRNKVPVTGLKTPFRDGLLKHVAEDVLKLAKDGLERRGYKEAGFLNAVDEVVRTGVTPAEKLLEMYNGEWGQSVDPVFEELLY
B9: POLK W214Y/W392H (Homo sapiens, UniProt Q9UBT6); chain MGLNDNKAGMEGLDKEKINKIIMEATKGSRFYGNELKKEKQVNQRIENMMQQKAQITSQQLRKAQLQVDRFAMELEQSRNLSNTIVHIDMDAFYAAVEMRDNPELKDKPIAVGSMSMLSTSNYHARRFGVRAAMPGFIAKRLCPQLIIVPPNFDKYRAVSKEVKEILADYDPNFMAMSLDEAYLNITKHLEERQNYPEDKRRYFIKMGSSVENDNPGKEVNKLSEHERSISPLLFEESPSDVQPPGDPFQVNFEEQNNPQILQNSVVFGTSAQEVVKEIRFRIEQKTTLTASAGIAPNTMLAKVCSDKNKPNGQYQILPNRQAVMDFIKDLPIRKVSGIGKVTEKMLKALGIITCTELYQQRALLSLLFSETSHHYFLHISLGLGSTHLTRDGERKSMSVERTFSEINKAEEQYSLCQELCSELAQDLQKERLKGRTVTIKLKNVNFEVKTRASTVSSVVSTAEEIFAIAKELLKTEIDADFPHPLRLRLMGVRISSFPNEEDRKHQQ

Substance | substrate | pH | temperature | notes | added | Km [µM]
B1 (LdmS) | Nc1ncnc2c1ncn2[C@@H]1O[C@H](COP(=O)(O)OP(=O)(O)OP(=O)(O)O)[C@@H](O)[C@H]1O | pH 8 | 37 °C | – | L-Asp 50 mM, L-Met 10 mM, MgCl2 5 mM | 310
protein (Candidatus Protochlamydia amoebophila, UniProt Q6MEN4) | Nc1ccn([C@@H]2O[C@H](COP(=O)(O)OP(=O)(O)OP(=O)(O)O)[C@@H](O)[C@H]2O)c(=O)n1 | pH 7 | 30 °C | transporter, labelled substrate, apparent, not purified | – | 570
B2 (MCAT R178G) | CC(C)(COP(=O)(O)OP(=O)(O)OC[C@H]1O[C@@H](n2cnc3c(N)ncnc32)[C@H](O)[C@@H]1OP(=O)(O)O)[C@@H](O)C(=O)NCCC(=O)NCCSC(=O)CC(=O)O | pH 6.8 | 20 °C | labelled substrate | holo-ACP 20 µM | 71.2
B3 (LYS12 D271N) | NC(=O)c1ccc[n+]([C@@H]2O[C@H](COP(=O)([O-])OP(=O)(O)OC[C@H]3O[C@@H](n4cnc5c(N)ncnc54)[C@H](O)[C@@H]3O)[C@@H](O)[C@H]2O)c1 | pH 7.5 | 25 °C | potassium acetate 100 mM | Mg-cosubstrate varied; Mg2+ 10 mM | 25
B4 (enzyme) | CC(C)(COP(=O)(O)OP(=O)(O)OC[C@H]1O[C@@H](n2cnc3c(N)ncnc32)[C@H](O)[C@@H]1OP(=O)(O)O)[C@@H](O)C(=O)NCCC(=O)NCCSC(=O)CCC(=O)O | pH 7.5 | 37 °C | – | – | 1
B5 (phyA) | O=P(O)(O)O[C@@H]1[C@H](OP(=O)(O)O)[C@H](O)[C@@H](O)[C@H](O)[C@H]1OP(=O)(O)O | pH 5 | 37 °C | – | – | 223
B6 (SLCO1B1) | COc1cc2c(cc1OC)[C@@H]1Cc3ccc(OC)c(OC)c3CN1CC2 | pH 7.4 | 37 °C | not purified | – | 18.6
B7 | COc1c(Cl)ccc(Cl)c1C(=O)O | – | – | apparent | NADH 1 mM | 42
B8 (GSH1 E201K) | Nc1ncnc2c1ncn2[C@@H]1O[C@H](COP(=O)(O)OP(=O)(O)OP(=O)(O)O)[C@@H](O)[C@H]1O | pH 7 | – | – | – | 1450
B9 (POLK W214Y/W392H) | Nc1ccn([C@H]2C[C@H](O)[C@@H](COP(=O)(O)OP(=O)(O)OP(=O)(O)O)O2)c(=O)n1 | pH 7.5 | 23 °C | MgCl2 5 mM | G template | 1.7
